Published values collected from several papers.
± gives the spread as reported.

The pKa of `CCCC[C@H](NC(=O)[C@H](CC(C)C)N(C)C(=O)CNC(=O)[C@@H](NC(=O)[C@H](Cc1ccccc1)NC(=O)[C@H](CCCCN)NC(=O)[C@@H](N)CC(=O)O)C(C)C)C(N)=O` is reported as 11.38 ± 0.08 (potentiometric titration; first pKa).
`O=c1c(-c2ccccc2)c[nH]n1-c1ccccn1` gave a pKa of 6 (spectrophotometry; water).
The pKa of `Cc1nc(N(C)C)nc(C)c1O` is reported as 9 (spectrophotometry; potassium phosphate 10 mM, KCl 200 mM; 298 K).
The pKa of `CC1=C2[O][Ru-]([Cl])[O+]=C2C=CN1CCCCCCCCCCCCN1C=CC2=[O+][Ru-]([Cl])[O]C2=C1C.Cc1ccc(C(C)C)cc1.Cc1ccc(C(C)C)cc1` is reported as 9.83 ± 0.06 (NMR pD titration).
The pKa of `O=c1[nH]c(-c2nsc3ccccc23)no1` is reported as 4.5 (potentiometric titration; 0.15 M KCl; Yasuda-Shedlovsky extrapolation).
For `Cc1ccccc1-c1cc(N2CCOCC2)ccc1N(C)C(=O)C(C)(C)c1cc(C(F)(F)F)cc(C(F)(F)F)c1`, the pKa was < 3 (potentiometric titration; 67% methanol in water).
`Cc1sc2c(c1C)C(c1ccc(Cl)cc1)=N[C@@H](CC(=O)NCCCN1CCN(CCCNc3cccc4c3C(=O)N(C3CCC(=O)NC3=O)C4=O)CC1)c1nnc(C)n1-2` (stereo partly shown) gave a pKa of 4.69 ± 0.14 (experimental).
For `O=c1[nH]c(-c2nc3ccccc3[nH]2)no1`, the pKa was 4.04 (potentiometric titration; 0.15 M KCl; Yasuda-Shedlovsky extrapolation).
With `Cc1ccccc1-c1cc(N2CCN(Cc3ccccc3)CC2)ccc1N(C)C(=O)C(C)(C)c1cc(C(F)(F)F)cc(C(F)(F)F)c1` the pKa was 6.17 (potentiometric titration; 67% methanol in water).
The pKa of `COc1ccc2cc(-c3ccc(-c4ccc(C)cn4)nc3)oc2c1` is reported as 4.3 (pH titration; conjugate acid of ligand).
For `CC(=O)Nc1ncc(CN2CC[C@H](Oc3cccc(F)n3)C[C@@H]2C)s1`, the pKa was 10.6.
For `O=C(NC1CCCCN=CC1=O)OCc1ccccc1` (stereo not shown), the pKa was ~6.2 (13C NMR titration).
For `CC(C)C[C@H](NC(=O)[C@H](CCC1CCCCC1)NC(=O)[C@@H]1CCCN1C(=O)c1ccc(F)cc1)C(=O)NC(C)(C)C(=O)N[C@@H](CC(C)C)C(=O)N[C@@H](CC(C)C)C(=O)NC(C)(C)C(=O)NC(C)(C)C(=O)NCCC(=O)NC1(CN(C)C)CCC1`, the pKa was 7.3 (potentiometric titration; methanol-water 1:4, NaCl 150 mM; terminal amine).
With `CC1=C2[O][Ru-]([Cl])[O+]=C2C=CN1CCCN1C=CC2=[O+][Ru-]([Cl])[O]C2=C1C.Cc1ccc(C(C)C)cc1.Cc1ccc(C(C)C)cc1` the pKa was 9.7 ± 0.03 (NMR pD titration).
`O=c1[nH]c(-c2nc3ccccc3s2)no1` has a pKa of 2.87 (potentiometric titration; 0.15 M KCl; Yasuda-Shedlovsky extrapolation).
`Br.Br.Br.O=c1c(O)cccn1CCN1CCN(CCn2cccc(O)c2=O)CCN(CCn2cccc(O)c2=O)CC1` gave a pKa of 5.7 (potentiometric titration; hydroxypyridinone group; pKa2).
For `CC(C)C[C@H](NC(=O)[C@H](CCC1CCCCC1)NC(=O)[C@@H]1CCCN1C(=O)c1ccc(F)cc1)C(=O)NC(C)(C)C(=O)N[C@@H](CC(C)C)C(=O)N[C@@H](CC(C)C)C(=O)NC(C)(C)C(=O)NC(C)(C)C(=O)NCCC(=O)NCCN1CCOCC1`, the pKa was 5.2 (potentiometric titration; methanol-water 1:4, NaCl 150 mM; terminal amine).
With `O=S(=O)([O-])CCCSCCCN(CCCSCCCS(=O)(=O)[O-])CCCSCCCS(=O)(=O)[O-].[Na+].[Na+].[Na+]` the pKa was 9.09 (potentiometric or spectrophotometric titration; ionic strength 0.1).
The pKa of `Cc1ccccc1-c1cc(N2CCN(C)CC2)ccc1N(C)C(=O)C(C)(C)c1cc(C(F)(F)F)cc(C(F)(F)F)c1` is reported as 6.95 (potentiometric titration; 67% methanol in water).

Some of these lines once more:
For `O=C(NC1CCCCN=CC1=O)OCc1ccccc1` (stereo not shown), the pKa was ~6.2 (13C NMR titration).
